Results collected from several papers.
Each line is one published result; not all experiments were run side by side. Several values in a cell are separate wells, animals, samples, runs or records. Numbers after ± are the reported error.
USP5: Ubiquitin carboxyl-terminal hydrolase 5 (USP5, Homo sapiens, UniProt P45974)
Sequence of UniProt P45974 (whole entry, looked up): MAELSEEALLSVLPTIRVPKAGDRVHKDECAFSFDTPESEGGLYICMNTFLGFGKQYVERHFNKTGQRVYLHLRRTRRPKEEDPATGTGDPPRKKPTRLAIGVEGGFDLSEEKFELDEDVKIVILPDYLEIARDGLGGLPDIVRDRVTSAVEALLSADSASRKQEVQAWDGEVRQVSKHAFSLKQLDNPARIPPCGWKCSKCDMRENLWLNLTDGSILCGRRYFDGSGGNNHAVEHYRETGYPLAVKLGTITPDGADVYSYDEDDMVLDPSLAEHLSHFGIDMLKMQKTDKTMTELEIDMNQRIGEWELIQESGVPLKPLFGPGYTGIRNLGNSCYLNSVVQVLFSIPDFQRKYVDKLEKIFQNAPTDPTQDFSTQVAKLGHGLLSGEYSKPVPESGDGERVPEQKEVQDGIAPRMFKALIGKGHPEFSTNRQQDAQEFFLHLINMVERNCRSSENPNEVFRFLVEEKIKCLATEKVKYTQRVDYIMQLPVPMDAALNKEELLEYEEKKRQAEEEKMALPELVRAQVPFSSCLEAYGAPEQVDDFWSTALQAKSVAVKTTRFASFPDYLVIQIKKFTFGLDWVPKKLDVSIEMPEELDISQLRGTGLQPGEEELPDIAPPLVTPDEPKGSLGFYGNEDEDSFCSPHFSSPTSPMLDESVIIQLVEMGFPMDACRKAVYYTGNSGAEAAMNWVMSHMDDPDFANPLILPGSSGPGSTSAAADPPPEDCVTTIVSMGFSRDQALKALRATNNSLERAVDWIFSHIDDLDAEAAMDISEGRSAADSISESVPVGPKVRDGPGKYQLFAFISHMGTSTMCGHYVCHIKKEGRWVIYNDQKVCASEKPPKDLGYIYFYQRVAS
Coelenterazine h 2-monooxygenase: Coelenterazine h 2-monooxygenase (Renilla reniformis, UniProt P27652)
Sequence of UniProt P27652 (whole entry, looked up): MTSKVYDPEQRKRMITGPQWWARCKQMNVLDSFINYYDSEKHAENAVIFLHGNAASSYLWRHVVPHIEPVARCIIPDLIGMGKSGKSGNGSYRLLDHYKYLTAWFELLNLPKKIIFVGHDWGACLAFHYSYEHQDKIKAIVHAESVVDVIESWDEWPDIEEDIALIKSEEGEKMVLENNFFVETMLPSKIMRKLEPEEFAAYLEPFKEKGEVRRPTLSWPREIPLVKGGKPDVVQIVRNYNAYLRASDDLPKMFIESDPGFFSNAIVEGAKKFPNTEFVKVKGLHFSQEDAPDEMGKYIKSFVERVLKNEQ
PTGS2: Prostaglandin G/H synthase 2 (PTGS2, Homo sapiens, UniProt P35354)
Sequence of UniProt P35354 (whole entry, looked up): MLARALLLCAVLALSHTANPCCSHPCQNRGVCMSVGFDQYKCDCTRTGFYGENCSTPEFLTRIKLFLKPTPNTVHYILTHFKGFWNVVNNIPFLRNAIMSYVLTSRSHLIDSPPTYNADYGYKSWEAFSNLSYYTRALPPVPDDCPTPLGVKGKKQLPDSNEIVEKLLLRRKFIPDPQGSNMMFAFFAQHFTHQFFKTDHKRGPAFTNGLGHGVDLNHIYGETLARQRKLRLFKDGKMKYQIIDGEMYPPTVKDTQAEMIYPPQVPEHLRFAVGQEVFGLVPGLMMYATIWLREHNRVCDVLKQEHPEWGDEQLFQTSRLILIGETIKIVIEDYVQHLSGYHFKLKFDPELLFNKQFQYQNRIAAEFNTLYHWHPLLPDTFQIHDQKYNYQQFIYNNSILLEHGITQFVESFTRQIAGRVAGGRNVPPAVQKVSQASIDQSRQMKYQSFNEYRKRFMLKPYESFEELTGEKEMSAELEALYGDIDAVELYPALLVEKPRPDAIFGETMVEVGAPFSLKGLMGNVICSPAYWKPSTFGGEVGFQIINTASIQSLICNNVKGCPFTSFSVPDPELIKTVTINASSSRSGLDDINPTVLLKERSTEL
Protein-S-isoprenylcysteine O-methyltransferase: Protein-S-isoprenylcysteine O-methyltransferase (Homo sapiens, UniProt O60725)
Sequence of UniProt O60725 (whole entry, looked up): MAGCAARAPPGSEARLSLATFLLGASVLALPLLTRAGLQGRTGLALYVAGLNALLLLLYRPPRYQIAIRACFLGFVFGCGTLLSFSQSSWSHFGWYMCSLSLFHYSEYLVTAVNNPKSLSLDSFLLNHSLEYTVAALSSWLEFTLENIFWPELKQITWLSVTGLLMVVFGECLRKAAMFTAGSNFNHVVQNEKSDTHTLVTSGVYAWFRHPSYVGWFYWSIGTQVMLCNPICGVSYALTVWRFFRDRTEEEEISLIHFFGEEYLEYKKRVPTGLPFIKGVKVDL
TACR1: Substance-P receptor (TACR1, Homo sapiens, UniProt P25103)
Sequence of UniProt Q02127 (whole entry, looked up): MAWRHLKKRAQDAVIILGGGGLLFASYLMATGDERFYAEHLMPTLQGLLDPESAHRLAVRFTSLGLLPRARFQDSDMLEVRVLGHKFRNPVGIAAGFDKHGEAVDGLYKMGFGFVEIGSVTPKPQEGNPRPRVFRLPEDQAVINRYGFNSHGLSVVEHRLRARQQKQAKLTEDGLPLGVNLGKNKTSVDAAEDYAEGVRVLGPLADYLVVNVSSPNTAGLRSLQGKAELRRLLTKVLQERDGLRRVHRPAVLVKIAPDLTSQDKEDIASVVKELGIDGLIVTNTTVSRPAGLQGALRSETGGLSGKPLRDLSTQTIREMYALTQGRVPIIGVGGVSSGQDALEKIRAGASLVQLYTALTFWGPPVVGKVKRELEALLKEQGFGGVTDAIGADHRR
Sequence of UniProt P25103 (whole entry, looked up): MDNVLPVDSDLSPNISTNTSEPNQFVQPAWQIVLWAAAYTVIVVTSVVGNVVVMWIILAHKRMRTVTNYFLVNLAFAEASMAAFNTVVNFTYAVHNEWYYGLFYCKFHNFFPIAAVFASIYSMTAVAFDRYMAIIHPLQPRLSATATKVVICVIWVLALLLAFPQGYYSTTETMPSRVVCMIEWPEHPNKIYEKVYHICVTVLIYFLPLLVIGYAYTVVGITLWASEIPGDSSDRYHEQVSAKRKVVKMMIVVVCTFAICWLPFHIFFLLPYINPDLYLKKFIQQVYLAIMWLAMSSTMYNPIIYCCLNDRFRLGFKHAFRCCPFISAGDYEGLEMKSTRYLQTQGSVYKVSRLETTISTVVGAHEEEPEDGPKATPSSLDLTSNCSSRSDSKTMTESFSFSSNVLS
Sequence of UniProt P22612 (whole entry, looked up): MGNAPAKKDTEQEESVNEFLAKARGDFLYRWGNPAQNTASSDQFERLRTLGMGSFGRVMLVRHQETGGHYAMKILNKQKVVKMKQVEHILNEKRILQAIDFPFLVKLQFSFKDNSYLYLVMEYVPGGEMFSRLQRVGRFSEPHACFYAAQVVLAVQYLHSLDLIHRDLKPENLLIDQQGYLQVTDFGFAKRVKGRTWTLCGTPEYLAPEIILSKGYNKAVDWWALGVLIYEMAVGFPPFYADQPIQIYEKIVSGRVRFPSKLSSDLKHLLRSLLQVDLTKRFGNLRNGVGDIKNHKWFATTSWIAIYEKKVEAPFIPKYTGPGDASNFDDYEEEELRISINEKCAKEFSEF
Sequence of UniProt Q9Y271 (whole entry, looked up): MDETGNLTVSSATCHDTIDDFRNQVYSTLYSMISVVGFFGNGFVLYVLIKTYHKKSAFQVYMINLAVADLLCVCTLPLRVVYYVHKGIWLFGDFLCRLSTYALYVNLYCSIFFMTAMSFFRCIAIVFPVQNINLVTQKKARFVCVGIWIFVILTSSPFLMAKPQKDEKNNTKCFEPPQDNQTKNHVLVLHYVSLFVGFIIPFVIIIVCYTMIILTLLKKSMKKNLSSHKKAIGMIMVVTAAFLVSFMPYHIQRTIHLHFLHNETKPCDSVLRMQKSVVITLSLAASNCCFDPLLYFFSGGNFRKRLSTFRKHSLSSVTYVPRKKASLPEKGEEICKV
Sequence of UniProt P35414 (whole entry, looked up): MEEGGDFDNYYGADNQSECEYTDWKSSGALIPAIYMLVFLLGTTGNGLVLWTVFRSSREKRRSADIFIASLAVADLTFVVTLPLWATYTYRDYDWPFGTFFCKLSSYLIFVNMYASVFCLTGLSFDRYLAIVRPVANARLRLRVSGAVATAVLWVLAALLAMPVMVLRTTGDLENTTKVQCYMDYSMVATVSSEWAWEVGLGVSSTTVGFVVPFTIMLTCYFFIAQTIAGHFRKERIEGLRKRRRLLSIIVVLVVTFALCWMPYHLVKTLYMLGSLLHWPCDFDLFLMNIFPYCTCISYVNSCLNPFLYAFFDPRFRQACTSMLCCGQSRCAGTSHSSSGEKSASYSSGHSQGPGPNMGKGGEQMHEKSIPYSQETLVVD
Sequence of UniProt P51684 (whole entry, looked up): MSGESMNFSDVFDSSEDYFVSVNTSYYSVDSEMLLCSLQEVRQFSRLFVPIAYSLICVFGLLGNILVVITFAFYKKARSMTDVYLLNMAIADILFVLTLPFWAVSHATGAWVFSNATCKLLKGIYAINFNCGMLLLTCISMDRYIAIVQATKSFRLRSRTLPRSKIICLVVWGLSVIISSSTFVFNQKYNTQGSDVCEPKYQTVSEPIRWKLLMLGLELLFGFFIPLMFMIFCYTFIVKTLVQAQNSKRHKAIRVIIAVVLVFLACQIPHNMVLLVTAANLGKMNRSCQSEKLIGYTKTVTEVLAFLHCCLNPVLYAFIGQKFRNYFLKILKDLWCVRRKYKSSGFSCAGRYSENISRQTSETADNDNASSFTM
Sequence of UniProt Q9H5I1 (whole entry, looked up): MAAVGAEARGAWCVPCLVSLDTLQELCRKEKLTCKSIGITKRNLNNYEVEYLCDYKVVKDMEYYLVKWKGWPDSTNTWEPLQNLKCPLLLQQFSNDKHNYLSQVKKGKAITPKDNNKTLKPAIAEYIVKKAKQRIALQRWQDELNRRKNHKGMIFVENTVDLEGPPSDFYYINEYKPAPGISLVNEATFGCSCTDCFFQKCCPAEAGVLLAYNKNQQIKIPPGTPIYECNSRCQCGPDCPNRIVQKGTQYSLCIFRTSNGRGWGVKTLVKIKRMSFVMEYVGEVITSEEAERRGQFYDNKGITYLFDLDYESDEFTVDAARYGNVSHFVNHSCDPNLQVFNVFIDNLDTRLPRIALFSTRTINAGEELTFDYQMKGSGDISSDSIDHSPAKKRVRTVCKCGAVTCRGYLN

SMILES = CSc1scc2c1C(=O)C(=CN(C)C)CC2; target = USP5; assay = enzyme activity, inhibitor; conditions = 17 µM; inhibition = 68%
SMILES = Cc1ccc2c(c1)sc(-c1ccc(N(C)C)cc1)[n+]2C; target = Coelenterazine h 2-monooxygenase; assay = luciferase activity, inhibitor, luminescence counter-screen; conditions = concentration not given, test 1; inhibition = 91.7% and 73.8%
SMILES = CN(C)C/C=C/C(=O)Nc1ccc2nc(NCCCCCN(C)C)nc(NCCCCCCN(C)C)c2c1; target = Histone-lysine N-methyltransferase SUV39H2 (SUV39H2, Homo sapiens, UniProt Q9H5I1); assay = enzyme activity, inhibitor, radiometric; conditions = 50 µM; inhibition = 19%
SMILES = O=C1c2sc(-c3ccc(N4CCC(CO)CC4)nc3F)nc2CCN1c1cccnc1; target = sodium channel site 2; assay = radioligand binding; conditions = 1 µM, together with: antagonist radioligand; inhibition = -14%
SMILES = Cl.Oc1ccc(Nc2nc(NCC3CCCO3)c3ccccc3n2)cc1 (centres unmarked); target = Coelenterazine h 2-monooxygenase; assay = luciferase activity, inhibitor, luminescence counter-screen; conditions = concentration not given, test 1; inhibition = 96.5% and 89.8%
SMILES = COCC(=O)N1CCc2cc(-c3csc(NC(=O)c4cc(OC)cc(OC)c4)n3)ccc21; target = P2Y receptor, rat; assay = radioligand binding; conditions = 10 µM; inhibition = 9%
SMILES = Cn1ccc2cc(-n3c(=O)[nH]c4sc5c(c4c3=O)CCCC5)ccc21; target = Cysteinyl leukotriene receptor 1 (CYSLTR1, Homo sapiens, UniProt Q9Y271); assay = ligand displacement; conditions = 10 µM; inhibition = 3%
SMILES = CCOC(=O)C(C#N)C1(O)C(=O)c2ccccc2C1=O (centres unmarked); target = USP5; assay = enzyme activity, inhibitor; conditions = 17 µM; inhibition = 57%
SMILES = CS(=O)(=O)c1ccc(-n2cc(C=NN=c3[nH]c(-c4ccc([N+](=O)[O-])cc4)cs3)c(-c3ccc([N+](=O)[O-])cc3)n2)cc1; target = PTGS2; assay = enzyme activity; conditions = 0.1 µM; inhibition = 15.9%
SMILES = CC(=O)C12NC(C)(C)CC1(C)C(=O)C1=C2c2c(c3c4n2C(C)(C)CC2=C4C4(CC(C)(C)NC(C)(C4)C2=O)CC3(C)C)C(=O)C(C)(C)N1 (single isomer, unassigned; (-)); target = Transient receptor potential cation channel subfamily V member 3 (TRPV3, Homo sapiens, UniProt Q8NET8); assay = ion current, inhibitor, patch clamp; system = HEK-293T; conditions = 50 µM; inhibition = 0.22%
SMILES = N#Cc1ccnc(N2C(=O)CC[C@H]2C(=O)N(c2cncc(F)c2)[C@H](C(=O)NC2CC(F)(F)C2)c2ccccc2Cl)c1; target = Glucose-6-phosphate 1-dehydrogenase (G6PD, Homo sapiens, UniProt P11413); assay = enzyme activity; conditions = 100 µM; inhibition = no inhibition
SMILES = C/C=C(/C)C(=O)O[C@@H]1C=C(C)CC[C@]2(O)[C@@H](C(C)C)CC(=O)[C@]12C; target = PTGS2; assay = enzyme activity, inhibitor; conditions = 0.24 µg/mL; inhibition = 0%
SMILES = COc1cc(NC(=O)c2ccc([N+](=O)[O-])cc2)ccc1NC(=O)c1ccc([N+](=O)[O-])cc1; target = Apelin receptor (APLNR, Homo sapiens, UniProt P35414); assay = β-arrestin recruitment, antagonist, PRESTO-Tango; conditions = concentration not given; inhibition = 79.1 ± 5.1%
SMILES = C/C=C/C(=O)Nc1ccc2nc(NCCCCCN(C)C)nc(NCCCCCCN(C)C)c2c1; target = Protein arginine N-methyltransferase 6 (PRMT6, Homo sapiens, UniProt Q96LA8); assay = enzyme activity, inhibitor, radiometric; conditions = 10 µM; inhibition = 55%
SMILES = CC(C)Cc1ccc(-c2nn(-c3ccc(S(C)(=O)=O)cc3)cc2C=NN=c2[nH]c(-c3ccc(Br)cc3)cs2)cc1; target = PTGS2; assay = enzyme activity; conditions = 10 µM; inhibition = 82.7%
SMILES = NS(=O)(=O)c1ccc(CCNCc2ccc(-c3ccc(Br)cc3)o2)cc1; target = D(3) dopamine receptor (DRD3, Homo sapiens, UniProt P35462); assay = enzyme activity, inhibitor; conditions = 10 µM; inhibition = 42.8%
SMILES = CC(C)Oc1ccc(CNCCC2(C(C)C)CCOC(C)(C)C2)cc1 (centres unmarked); target = Coelenterazine h 2-monooxygenase; assay = luciferase activity, inhibitor, luminescence counter-screen; conditions = concentration not given, test 2; inhibition = 105% and 126%
SMILES = NC(=O)[C@@H](O)C[C@H]1CCc2sc3ncnc(O[C@H]4CC[C@H](N5CCOCC5)CC4)c3c21; target = cAMP-dependent protein kinase catalytic subunit gamma (PRKACG, Homo sapiens, UniProt P22612); assay = enzyme activity, inhibitor; conditions = 10 µM; inhibition = 4%
SMILES = Cc1cc(NC(=O)C(=O)N2C[C@@H](C)CC[C@@H]2c2ccc3scnc3c2)cnc1N; target = PRMT5-containing complexes; assay = enzyme activity, HotSpot radiometric; conditions = 10 µM, panel of 38 methyltransferases, together with: 3H-SAM 1 µM; inhibition = > 90%
SMILES = O=C1c2sc(-c3ccc(N4CCC(F)C4)nc3F)nc2CCN1c1cccnc1 (centres unmarked); target = Androgen receptor (AR, Homo sapiens, UniProt P10275); assay = ligand displacement, radioligand; conditions = 1 µM; inhibition = 0%
SMILES = CS(=O)(=O)c1ccc(-n2cc(C=NN=c3[nH]c(-c4ccc(Br)cc4)cs3)c(-c3ccc(Br)cc3)n2)cc1; target = PTGS2; assay = enzyme activity; conditions = 1 µM; inhibition = 50.6%
SMILES = COc1cccc(-c2cc(F)c(NC(=O)Nc3sc(C)nc3C(=O)O)c(F)c2)c1; target = Dihydroorotate dehydrogenase (quinone), mitochondrial (DHODH, Homo sapiens, UniProt Q02127); assay = enzyme activity, DCIP colorimetric; conditions = 20.00 µM; inhibition = 29.1% and 29.4% and 29.2%
SMILES = CCCCCCCCN(CCC(=O)Nc1ccccc1)C(=O)c1ccncc1; target = Protein-S-isoprenylcysteine O-methyltransferase; assay = enzyme activity; system = Sf9 membranes; conditions = 50 µM, together with: [3H]S-adenosylmethionine, biotin-farnesyl-L-cysteine; inhibition = 30%
SMILES = CO[C@@H]1OC[C@@H](O)[C@H](O)[C@H]1O; target = PTGS2; assay = enzyme activity, inhibitor; conditions = 0.24 µg/mL; inhibition = 5.82%
SMILES = O=C1CO[C@H](CNC(=O)C2(c3ccc(Cl)cc3)CC2)CN1C1Cc2ccccc2C1; target = C-C chemokine receptor type 6 (CCR6, Homo sapiens, UniProt P51684); assay = β-arrestin recruitment, antagonist; conditions = 1 µM; inhibition = 51%
SMILES = CCCCCCCCN(CCC(=O)Nc1ccccc1)C(=O)c1cccc(C#N)c1; target = Protein-S-isoprenylcysteine O-methyltransferase; assay = enzyme activity; system = Sf9 membranes; conditions = 50 µM, together with: [3H]S-adenosylmethionine, biotin-farnesyl-L-cysteine; inhibition = 53%
SMILES = Cc1ccc(-c2nn(-c3ccc(S(C)(=O)=O)cc3)cc2C=NN=c2[nH]c(-c3ccc([N+](=O)[O-])cc3)cs2)cc1; target = PTGS2; assay = enzyme activity; conditions = 10 µM; inhibition = 73.2%
SMILES = C[Si](C)(C)C[C@H](CN)CC(=O)O; target = TACR1; assay = ligand displacement, radioligand; conditions = 250 µM; inhibition = 6%
SMILES = CS(=O)(=O)c1ccc(-n2cc(C=NN=c3[nH]c(-c4ccc([N+](=O)[O-])cc4)cs3)c(-c3ccc(Br)cc3)n2)cc1; target = PTGS2; assay = enzyme activity; conditions = 0.01 µM; inhibition = 13.8%
SMILES = COc1ccc(C2CC(Nc3ccc(-c4ccc(NC5=NN(C(C)=O)C(c6ccc(OC)cc6)C5)cc4)cc3)=NN2C(C)=O)cc1 (centres unmarked); target = cyclooxygenase, rabbit; system = distal colon mucosa microsomes; conditions = 10 µM; inhibition = 75%
SMILES = CCn1cc(C(=O)O)c(=O)c2c(N)c(F)c(NC3CCCCC3)cc21; target = Microtubule-associated serine/threonine-protein kinase 3 (MAST3, Homo sapiens, UniProt O60307); assay = kinase activity; conditions = 0.1 µM, together with: ATP at Km; inhibition = 15.7%
SMILES = Cc1ccc(-c2nn(-c3ccc(S(C)(=O)=O)cc3)cc2C=NN=c2[nH]c(-c3ccc(Br)cc3)cs2)cc1 (mixture of isomers); target = PTGS2; assay = enzyme activity; conditions = 100 µM; inhibition = 90.5%
SMILES = COc1ccc(C2NC([O-])=C(C#N)C(=O)C2[n+]2ccccc2)cc1 (centres unmarked); target = USP5; assay = enzyme activity, inhibitor; conditions = 17 µM; inhibition = 76%
SMILES = NNC(Cc1ccccc1)c1nnnn1Cc1ccccc1 (centres unmarked); target = Endothiapepsin (EAPA, Cryphonectria parasitica, UniProt P11838); assay = enzyme activity, inhibitor; conditions = 200 µM; inhibition = 39.9%
SMILES = CC1CCC(C(C)C)C(OC(=O)Cn2c(-c3ccc(Br)cc3)[n+](C)c3ccccc32)C1.[Cl-] (centres unmarked); target = Coelenterazine h 2-monooxygenase; assay = luciferase activity, inhibitor, luminescence counter-screen; conditions = concentration not given, test 3 new dilution; inhibition = 109% and 86.6%
SMILES = CCCCCCCCN(CCC(=O)Nc1ccccc1)C(=O)c1ccoc1; target = Protein-S-isoprenylcysteine O-methyltransferase; assay = enzyme activity; system = Sf9 membranes; conditions = 50 µM, together with: [3H]S-adenosylmethionine, biotin-farnesyl-L-cysteine; inhibition = 81%
SMILES = CN1C=C/C(=C\c2cc[n+](C)c3ccccc23)c2ccccc21; target = Coelenterazine h 2-monooxygenase; assay = luciferase activity, inhibitor, luminescence counter-screen; conditions = concentration not given, test 3 new dilution; inhibition = 97.5% and 79.1%
SMILES = CSC1=NSC2=NC(=O)C(=Cc3ccc(O)c(O)c3)C(=N)N12; target = USP5; assay = enzyme activity, inhibitor; conditions = 17 µM; inhibition = 6%
SMILES = CC(=O)n1cc([C@H]2C=C(C(=O)N3CCN(Cc4ccc5c(c4)OCO5)CC3)O[C@@H](OCc3ccc(CO)cc3)C2)c2ccccc21; target = Coelenterazine h 2-monooxygenase; assay = luciferase activity, inhibitor, luminescence counter-screen; conditions = concentration not given, test 3 new dilution; inhibition = 66.1% and 64.9%
SMILES = O=C(NN=C1C=CC(=NO)C=C1)c1ccccc1O; target = USP5; assay = enzyme activity, inhibitor; conditions = 17 µM; inhibition = 36%
SMILES = CC=C(C)C(=O)OC1CC2C(C=C(C)C3C(OC(C)=O)CC(=O)C13C)OC(=O)C2C (centres unmarked); target = PTGS2; assay = enzyme activity, inhibitor; conditions = 1.95 µg/mL; inhibition = 0%
SMILES = COC(=O)c1sc2nc[nH]c(=O)c2c1CC(=O)O; target = USP5; assay = enzyme activity, inhibitor; conditions = 17 µM; inhibition = 44%
SMILES = CCCCCCCCN(CCC(=O)Nc1ccccc1)C(=O)C1CCCN1 (centres unmarked); target = Protein-S-isoprenylcysteine O-methyltransferase; assay = enzyme activity; system = Sf9 membranes; conditions = 50 µM, together with: [3H]S-adenosylmethionine, biotin-farnesyl-L-cysteine; inhibition = 62%
SMILES = Cc1ccc(-n2c(C)cc(C(=O)CN3CCC(C)CC3)c2C)cc1; target = USP5; assay = enzyme activity, inhibitor; conditions = 17 µM; inhibition = 0%
SMILES = C[Si]1(C[C@H](CN)CC(=O)O)CCCC1; target = TACR1; assay = ligand displacement, radioligand; conditions = 70 µM; inhibition = 21%
SMILES = CCCCCCCCN(CCC(=O)Nc1ccccc1)C(=O)c1ccc(F)cc1; target = Protein-S-isoprenylcysteine O-methyltransferase; assay = enzyme activity; system = Sf9 membranes; conditions = 50 µM, together with: [3H]S-adenosylmethionine, biotin-farnesyl-L-cysteine; inhibition = 42%
SMILES = Clc1cccc2c(NCCCN3CCOCC3)cnnc12; target = USP5; assay = enzyme activity, inhibitor; conditions = 17 µM; inhibition = 20%

Excerpt of the above:
SMILES = C/C=C(/C)C(=O)O[C@@H]1C=C(C)CC[C@]2(O)[C@@H](C(C)C)CC(=O)[C@]12C; target = PTGS2; assay = enzyme activity, inhibitor; conditions = 0.24 µg/mL; inhibition = 0%
SMILES = COc1cc(NC(=O)c2ccc([N+](=O)[O-])cc2)ccc1NC(=O)c1ccc([N+](=O)[O-])cc1; target = Apelin receptor (APLNR, Homo sapiens, UniProt P35414); assay = β-arrestin recruitment, antagonist, PRESTO-Tango; conditions = concentration not given; inhibition = 79.1 ± 5.1%
SMILES = C/C=C/C(=O)Nc1ccc2nc(NCCCCCN(C)C)nc(NCCCCCCN(C)C)c2c1; target = Protein arginine N-methyltransferase 6 (PRMT6, Homo sapiens, UniProt Q96LA8); assay = enzyme activity, inhibitor, radiometric; conditions = 10 µM; inhibition = 55%
SMILES = CC(C)Cc1ccc(-c2nn(-c3ccc(S(C)(=O)=O)cc3)cc2C=NN=c2[nH]c(-c3ccc(Br)cc3)cs2)cc1; target = PTGS2; assay = enzyme activity; conditions = 10 µM; inhibition = 82.7%
SMILES = NS(=O)(=O)c1ccc(CCNCc2ccc(-c3ccc(Br)cc3)o2)cc1; target = D(3) dopamine receptor (DRD3, Homo sapiens, UniProt P35462); assay = enzyme activity, inhibitor; conditions = 10 µM; inhibition = 42.8%
SMILES = CC(C)Oc1ccc(CNCCC2(C(C)C)CCOC(C)(C)C2)cc1 (centres unmarked); target = Coelenterazine h 2-monooxygenase; assay = luciferase activity, inhibitor, luminescence counter-screen; conditions = concentration not given, test 2; inhibition = 105% and 126%
SMILES = NC(=O)[C@@H](O)C[C@H]1CCc2sc3ncnc(O[C@H]4CC[C@H](N5CCOCC5)CC4)c3c21; target = cAMP-dependent protein kinase catalytic subunit gamma (PRKACG, Homo sapiens, UniProt P22612); assay = enzyme activity, inhibitor; conditions = 10 µM; inhibition = 4%
